Experimental data from different studies.
Compare with care: the assays were run in different laboratories. ± marks the error that the study gave.
Chain of UniProt P07164 (whole entry, unmodified, looked up): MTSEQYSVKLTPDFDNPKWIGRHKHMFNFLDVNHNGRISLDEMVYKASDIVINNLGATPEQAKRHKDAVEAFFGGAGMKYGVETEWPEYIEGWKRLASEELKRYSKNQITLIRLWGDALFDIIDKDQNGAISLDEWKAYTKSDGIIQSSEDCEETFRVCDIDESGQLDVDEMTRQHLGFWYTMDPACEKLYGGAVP
Chain of UniProt P03372 (whole entry, looked up): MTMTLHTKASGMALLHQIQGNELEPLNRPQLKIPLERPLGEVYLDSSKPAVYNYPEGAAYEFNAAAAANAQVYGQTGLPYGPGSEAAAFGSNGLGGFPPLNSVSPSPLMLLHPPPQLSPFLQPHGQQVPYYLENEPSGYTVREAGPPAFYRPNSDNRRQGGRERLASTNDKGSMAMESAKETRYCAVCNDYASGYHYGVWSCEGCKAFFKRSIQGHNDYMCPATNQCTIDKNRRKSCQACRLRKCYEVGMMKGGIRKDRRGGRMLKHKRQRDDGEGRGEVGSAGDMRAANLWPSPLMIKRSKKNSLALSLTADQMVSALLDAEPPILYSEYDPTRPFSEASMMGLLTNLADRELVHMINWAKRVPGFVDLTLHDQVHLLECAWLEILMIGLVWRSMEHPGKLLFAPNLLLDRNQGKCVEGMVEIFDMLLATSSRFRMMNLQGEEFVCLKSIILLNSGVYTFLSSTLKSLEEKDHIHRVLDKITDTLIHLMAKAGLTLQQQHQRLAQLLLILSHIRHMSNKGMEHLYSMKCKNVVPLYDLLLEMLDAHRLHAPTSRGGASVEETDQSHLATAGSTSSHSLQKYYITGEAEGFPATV
Chain of UniProt O66465 (whole entry, looked up): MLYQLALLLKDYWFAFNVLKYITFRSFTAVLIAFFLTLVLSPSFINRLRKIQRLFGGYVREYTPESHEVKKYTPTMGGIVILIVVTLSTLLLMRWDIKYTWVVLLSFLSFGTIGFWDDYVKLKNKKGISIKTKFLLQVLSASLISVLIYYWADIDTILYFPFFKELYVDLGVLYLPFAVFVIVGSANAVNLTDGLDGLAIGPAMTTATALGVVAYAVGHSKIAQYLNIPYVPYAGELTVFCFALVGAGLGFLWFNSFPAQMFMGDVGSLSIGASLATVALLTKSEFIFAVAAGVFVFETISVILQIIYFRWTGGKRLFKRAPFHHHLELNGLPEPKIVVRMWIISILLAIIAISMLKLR
Chain of UniProt P0AFU8 (whole entry, looked up): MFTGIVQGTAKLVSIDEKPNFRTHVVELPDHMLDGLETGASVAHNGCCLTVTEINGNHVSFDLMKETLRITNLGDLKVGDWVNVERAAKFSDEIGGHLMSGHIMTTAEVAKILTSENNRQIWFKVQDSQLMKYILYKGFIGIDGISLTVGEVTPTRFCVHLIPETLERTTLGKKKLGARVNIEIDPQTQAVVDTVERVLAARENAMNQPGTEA
Chain of UniProt O60656 (whole entry, looked up): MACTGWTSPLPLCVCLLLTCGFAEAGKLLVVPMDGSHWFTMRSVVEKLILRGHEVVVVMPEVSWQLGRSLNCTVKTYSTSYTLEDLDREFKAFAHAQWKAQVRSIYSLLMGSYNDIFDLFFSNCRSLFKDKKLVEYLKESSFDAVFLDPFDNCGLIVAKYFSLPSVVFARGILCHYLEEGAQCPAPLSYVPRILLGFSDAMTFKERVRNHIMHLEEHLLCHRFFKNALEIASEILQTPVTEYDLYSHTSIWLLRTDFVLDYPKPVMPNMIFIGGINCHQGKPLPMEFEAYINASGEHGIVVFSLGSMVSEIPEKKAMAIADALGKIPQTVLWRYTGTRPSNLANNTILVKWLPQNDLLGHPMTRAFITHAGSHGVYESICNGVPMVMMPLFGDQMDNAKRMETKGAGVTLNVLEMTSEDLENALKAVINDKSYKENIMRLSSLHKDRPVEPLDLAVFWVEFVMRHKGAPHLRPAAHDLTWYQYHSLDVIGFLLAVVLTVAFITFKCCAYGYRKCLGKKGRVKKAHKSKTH
Chain of UniProt P69905 (whole entry, looked up): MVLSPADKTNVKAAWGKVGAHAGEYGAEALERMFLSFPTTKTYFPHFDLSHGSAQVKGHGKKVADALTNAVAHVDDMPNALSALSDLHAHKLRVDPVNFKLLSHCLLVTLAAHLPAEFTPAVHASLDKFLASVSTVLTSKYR
Chain of UniProt P41240 (whole entry, looked up): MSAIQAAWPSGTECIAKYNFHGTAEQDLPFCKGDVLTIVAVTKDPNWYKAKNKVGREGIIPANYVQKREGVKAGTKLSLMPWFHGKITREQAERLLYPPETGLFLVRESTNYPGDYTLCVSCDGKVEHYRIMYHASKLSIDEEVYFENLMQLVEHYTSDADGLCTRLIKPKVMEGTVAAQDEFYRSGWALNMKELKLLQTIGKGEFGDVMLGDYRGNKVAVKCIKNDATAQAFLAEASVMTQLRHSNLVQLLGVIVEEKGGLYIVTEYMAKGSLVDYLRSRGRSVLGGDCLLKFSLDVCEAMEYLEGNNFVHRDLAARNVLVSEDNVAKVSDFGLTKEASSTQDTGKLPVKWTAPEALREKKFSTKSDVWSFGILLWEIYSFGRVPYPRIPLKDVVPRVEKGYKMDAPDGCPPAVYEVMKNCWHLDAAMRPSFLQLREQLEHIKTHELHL
Chain of UniProt P34972 (whole entry, looked up): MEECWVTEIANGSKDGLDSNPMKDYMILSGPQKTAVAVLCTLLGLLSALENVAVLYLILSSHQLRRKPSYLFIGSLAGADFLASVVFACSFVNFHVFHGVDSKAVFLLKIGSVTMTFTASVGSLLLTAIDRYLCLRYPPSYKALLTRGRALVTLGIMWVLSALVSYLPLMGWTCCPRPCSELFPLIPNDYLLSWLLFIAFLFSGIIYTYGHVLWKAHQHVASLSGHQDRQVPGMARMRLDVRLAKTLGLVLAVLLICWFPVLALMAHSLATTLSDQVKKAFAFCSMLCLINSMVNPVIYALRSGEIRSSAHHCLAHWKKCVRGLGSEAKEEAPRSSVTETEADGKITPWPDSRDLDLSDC
Chain of UniProt Q9Y2U9 (whole entry, looked up): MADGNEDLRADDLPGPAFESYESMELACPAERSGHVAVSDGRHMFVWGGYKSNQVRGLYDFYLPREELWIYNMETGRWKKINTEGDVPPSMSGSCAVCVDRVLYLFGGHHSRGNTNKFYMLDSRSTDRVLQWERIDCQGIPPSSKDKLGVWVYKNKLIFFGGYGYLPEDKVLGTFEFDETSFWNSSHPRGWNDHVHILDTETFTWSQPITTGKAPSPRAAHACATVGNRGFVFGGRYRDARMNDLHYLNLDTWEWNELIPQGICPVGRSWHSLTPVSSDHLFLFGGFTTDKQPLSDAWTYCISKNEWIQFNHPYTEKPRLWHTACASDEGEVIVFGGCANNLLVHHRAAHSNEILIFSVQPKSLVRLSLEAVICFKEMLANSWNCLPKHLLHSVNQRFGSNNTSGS
Chain of UniProt P23141 (whole entry, looked up): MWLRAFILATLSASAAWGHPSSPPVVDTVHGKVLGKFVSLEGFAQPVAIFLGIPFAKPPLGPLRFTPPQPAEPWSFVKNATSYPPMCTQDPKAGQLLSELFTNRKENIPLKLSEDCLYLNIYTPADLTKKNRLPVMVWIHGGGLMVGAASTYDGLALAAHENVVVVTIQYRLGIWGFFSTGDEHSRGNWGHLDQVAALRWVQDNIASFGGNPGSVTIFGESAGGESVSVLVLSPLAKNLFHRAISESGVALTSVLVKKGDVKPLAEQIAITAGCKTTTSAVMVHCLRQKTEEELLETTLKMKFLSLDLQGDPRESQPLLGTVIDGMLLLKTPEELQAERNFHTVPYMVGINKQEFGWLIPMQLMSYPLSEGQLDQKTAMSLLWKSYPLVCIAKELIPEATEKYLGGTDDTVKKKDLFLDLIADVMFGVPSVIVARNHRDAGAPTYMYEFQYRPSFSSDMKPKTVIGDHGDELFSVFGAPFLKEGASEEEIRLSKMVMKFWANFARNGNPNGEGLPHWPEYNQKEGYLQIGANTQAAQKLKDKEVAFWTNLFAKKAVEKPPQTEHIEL

Substance | tested on | test | system | setting | how to read | endpoint | value
O=Cc1ccccc1 | Chilo suppressalis CSP2 | binding, competitive fluorescence displacement | – | 30 µM, pH 7.4 | – | fluorescence intensity | 48.6 ± 2.47%
COP(=O)(OC)OCc1ccc(C=O)o1 | Hemoglobin subunit alpha, with beta chain (HBA1, Homo sapiens, UniProt P69905) | item: haemoglobin A adduct | human normal whole blood | 2 mM, 24 h, hematocrit 30% | – | peak modification | 12.7%
WSHPQFEKGGGSGGG | Kelch domain-containing protein 2 (UniProt Q9Y2U9) | native mass spectrometry | peptide, 200 mM ammonium acetate | 20 µM Kelch domain-containing protein 2, pH 7 | baseline: total Kelch domain-containing protein 2 signal | fraction of protein bound | 0.3%
CC[C@H](C)[C@H](NC(=O)[C@H](CCCCN)NC(=O)[C@H](Cc1ccccc1)NC(=O)[C@H](CCCCNC(=O)[C@H](CC(C)C)NC(=O)[C@@H]1CCCN1C(=O)[C@H](CCCCN)NC(=O)CCS[C@@H]1O[C@H](CO)[C@H](O)[C@H](O)[C@H]1O)NC(=O)[C@H](CC(C)C)NC(=O)[C@@H]1CCCN1C(=O)[C@H](CCCCN)NC(=O)CCS[C@@H]1O[C@H](CO)[C@H](O)[C@H](O)[C@H]1O)C(N)=O | PA-I galactophilic lectin (lecA, Pseudomonas aeruginosa, UniProt Q05097) | isothermal titration calorimetry | – | pH 7.5, 25 °C, together with: 25 mM CaCl2 | – | ΔG | -31.8 ± 0.418 kJ/mol
CN[C@@](C)(C[18F])C(=O)O | MDA-MB-468 tumour model | – | host not given, kidney | 30 min, tumour-bearing | – | tracer uptake | 11 %ID/g
COCCCn1nc(C(=O)NC(C)(C)c2cccc(C(N)=O)c2)c2ccccc21 | Cannabinoid receptor 2 (CNR2, Homo sapiens, UniProt P34972) | calcium mobilization, agonist | CHO-K1 expressing Gαq16 | – | baseline: CP55,940 maximum | Emax | 11 ± 7%
Cc1ccccc1NC(=O)Oc1ccc2c(c1)[C@]1(C)CCN(C)[C@@H]1N2C | Liver carboxylesterase 1 (CES1, Homo sapiens, UniProt P23141) | irreversible inhibitor | – | 5× IC50 or 200 µM, 1 h, preincubation then inhibitor removal, together with: o-nitrophenyl acetate substrate | – | remaining activity | 43.4%
DDEPIYIEFDAHN | Tyrosine-protein kinase CSK (CSK, Homo sapiens, UniProt P41240) | substrate, coupled enzyme | peptide | pH 7.4, room temperature, together with: 1 mM ATP, 5 mM MnCl2 | – | kcat/Km | 3800 M⁻¹ s⁻¹
O=C1c2ccc(O)cc2OCC1c1ccc(O)cc1 (centres unmarked) | UDP-glucuronosyltransferase 1A9 (UGT1A9, Homo sapiens, UniProt O60656) | substrate | – | pH 7.4, 37 °C | – | Vmax | 628 pmol/mg/min
NCCCC(=O)O | Drosophila RDL receptor residue 206 | – | – | log EC50 vs cation-π binding | – | fluorination plot slope | -0.13
Oc1cccc(-c2ccc(Cl)c(Cl)c2)c1O | Aequorin-1 (Aequorea victoria, UniProt P07164, C152S/C159S/C187S) | aequorin bioluminescence, inhibitor | – | 2 h, together with: coelenterazine | – | detection limit | 47.9 µM
GGNWST | UDP-glucose:protein N-beta-glucosyltransferase (Actinobacillus pleuropneumoniae serotype 5b, UniProt A3N2T3, D215R/Q469A) | substrate | peptide | 15 min, pH 8.0, 37 °C, D215R mutant, together with: UDP-Glc 100 mM | – | apparent kcat | 0.07 ± 0.01 s⁻¹
O=c1[nH]c(/C=C/c2cc(O)ccc2O)c([N+](=O)[O-])c(=O)[nH]1 | Riboflavin synthase (ribC, Escherichia coli, UniProt P0AFU8) | enzyme activity, substrate | Escherichia coli, recombinant riboflavin synthase | pH 7.0 | – | Ks | 3.4 ± 0.3 µM
C/C(=C\c1csc(C)n1)[C@@H]1C[C@@H]2O[C@]2(C)CCC[C@H](C)[C@H](O)[C@@H](C)C(=O)C(C)(C)[C@@H](O)CC(=O)O1 | microtubules (bovine, glutaraldehyde-fixed) | competitor | – | 25 µM, together with: [3H]paclitaxel 2.5 µM | – | [3H]paclitaxel bound per tubulin | 0.16 ± 0.043
Cc1cc(O)ccc1-c1ccc(-c2ccc(O)cc2C)[se]1 | Estrogen receptor (ESR1, Homo sapiens, UniProt P03372) | antagonist | HEK293T | highest tested concentration, together with: estradiol 10 nM | baseline: estradiol alone | efficacy | 96 ± 13%
O=C(Cc1cccc(F)c1)NC1CCOC1=O (centres unmarked) | Transcriptional activator protein LasR (lasR, Pseudomonas aeruginosa, UniProt P25084) | reporter gene, agonist | Escherichia coli JLD271/pJN105L/pSC11 | 100 µM | baseline: OdDHL 100 µM | activation | -2%
CC(C)C[C@H](NC(=O)[C@@H](NC(=O)N[C@H](C(=O)O)C(C)C)[C@@H]1CCNC(=N)N1)C(=O)NCCCN[C@H](C(=O)O)[C@H](O[C@@H]1O[C@H](CN)[C@@H](O)[C@H]1O)[C@H]1O[C@@H](n2ccc(=O)[nH]c2=O)[C@H](O)[C@@H]1O | Phospho-N-acetylmuramoyl-pentapeptide-transferase (mraY, Aquifex aeolicus, UniProt O66465) | enzyme activity, inhibitor, fluorescence | – | – | baseline: Aquifex aeolicus over Staphylococcus aureus | IC50 ratio | ~120 fold

A few entries again:
Substance | tested on | test | system | setting | how to read | endpoint | value
O=C(Cc1cccc(F)c1)NC1CCOC1=O (centres unmarked) | Transcriptional activator protein LasR (lasR, Pseudomonas aeruginosa, UniProt P25084) | reporter gene, agonist | Escherichia coli JLD271/pJN105L/pSC11 | 100 µM | baseline: OdDHL 100 µM | activation | -2%
CC(C)C[C@H](NC(=O)[C@@H](NC(=O)N[C@H](C(=O)O)C(C)C)[C@@H]1CCNC(=N)N1)C(=O)NCCCN[C@H](C(=O)O)[C@H](O[C@@H]1O[C@H](CN)[C@@H](O)[C@H]1O)[C@H]1O[C@@H](n2ccc(=O)[nH]c2=O)[C@H](O)[C@@H]1O | Phospho-N-acetylmuramoyl-pentapeptide-transferase (mraY, Aquifex aeolicus, UniProt O66465) | enzyme activity, inhibitor, fluorescence | – | – | baseline: Aquifex aeolicus over Staphylococcus aureus | IC50 ratio | ~120 fold
